Results collected from several papers.
Parts stem from different laboratories: compare values within a part only. Substitutions count along the parent as printed.

Series 1 — target: CCNE2, cyclin fold, Cln2 fusion (human); method: yeast growth competition, sequencing; matrix: yeast; notes: strong parent motif; reference: not given; direction: higher = stronger binding; endpoint: normalised enrichment score
Starting sequence: CDKN1B docking peptide (human); PSACRNLFGPVDH; partner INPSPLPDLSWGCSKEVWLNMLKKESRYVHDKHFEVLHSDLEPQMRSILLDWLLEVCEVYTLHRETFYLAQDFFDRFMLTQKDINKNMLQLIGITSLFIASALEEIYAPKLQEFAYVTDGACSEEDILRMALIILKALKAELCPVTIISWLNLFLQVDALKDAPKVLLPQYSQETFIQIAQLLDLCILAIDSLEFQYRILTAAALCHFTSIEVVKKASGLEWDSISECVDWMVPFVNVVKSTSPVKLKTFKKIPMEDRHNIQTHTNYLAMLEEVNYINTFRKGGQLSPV
D12H: 0.709
L7V: 0.658
F8K: 0.112
S2V: 0.867
G9I: 0.809
G9C: 0.0843
G9D: 0.963
H13S: 1.52
S2C: 0.624
P10L: 0.834
N6H: 0.565
L7C: -0.44
C4I: 0.894
V11L: 1.46

Series 2 — method: universal PBM; form: double-stranded DNA, one strand shown; matrix: in vitro; tested at: 600 nM; direction: higher = stronger binding; endpoint: E-score
Target: Sal-like protein 4, full length isoform A (SALL4, Homo sapiens, UniProt Q9UJQ4, residues 1-1053)
Chain of UniProt Q9UJQ4 (whole entry, looked up): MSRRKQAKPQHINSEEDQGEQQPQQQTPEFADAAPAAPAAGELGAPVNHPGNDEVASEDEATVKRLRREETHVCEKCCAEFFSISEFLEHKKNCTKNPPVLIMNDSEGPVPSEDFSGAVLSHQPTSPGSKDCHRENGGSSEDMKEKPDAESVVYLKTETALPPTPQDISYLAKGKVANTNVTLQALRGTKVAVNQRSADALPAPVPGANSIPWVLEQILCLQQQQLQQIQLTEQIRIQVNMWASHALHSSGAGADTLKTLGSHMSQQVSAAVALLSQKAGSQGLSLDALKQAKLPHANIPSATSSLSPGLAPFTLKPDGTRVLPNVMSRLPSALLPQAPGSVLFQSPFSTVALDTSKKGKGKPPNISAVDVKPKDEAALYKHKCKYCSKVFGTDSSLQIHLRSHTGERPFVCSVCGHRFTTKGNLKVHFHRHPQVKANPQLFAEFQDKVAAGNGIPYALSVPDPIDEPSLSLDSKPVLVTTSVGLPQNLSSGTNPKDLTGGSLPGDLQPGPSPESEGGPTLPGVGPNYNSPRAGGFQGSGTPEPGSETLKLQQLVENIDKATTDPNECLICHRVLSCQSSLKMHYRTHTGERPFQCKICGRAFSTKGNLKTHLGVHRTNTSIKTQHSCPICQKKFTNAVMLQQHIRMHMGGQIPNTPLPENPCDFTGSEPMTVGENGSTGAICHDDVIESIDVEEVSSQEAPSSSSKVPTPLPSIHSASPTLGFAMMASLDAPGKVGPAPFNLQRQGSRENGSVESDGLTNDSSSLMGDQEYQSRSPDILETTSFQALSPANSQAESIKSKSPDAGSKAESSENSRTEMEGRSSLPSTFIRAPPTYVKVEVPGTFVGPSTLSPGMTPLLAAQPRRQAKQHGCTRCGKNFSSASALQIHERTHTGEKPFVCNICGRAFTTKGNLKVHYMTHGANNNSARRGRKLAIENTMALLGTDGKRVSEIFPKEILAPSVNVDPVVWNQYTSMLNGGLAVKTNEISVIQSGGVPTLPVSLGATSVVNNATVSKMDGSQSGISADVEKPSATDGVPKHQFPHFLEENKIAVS
Notes: 8-mer, flanks averaged, mean of replicates
GCATGCCC: -0.213
CATTGTGG: 0.00455
AGATGGAA: 0.0142
AACAGGTA: 0.0915
TACGCGAA: 0.053
AATCCAAG: 0.12
CCAGCTCG: -0.335
TAGACTGA: 0.108
ACTTCGTC: -0.133
CGCCACCA: -0.254
ACTGCGGA: -0.212
CTGAAACC: -0.00869

Series 3 — method: RNA Bind-n-Seq; form: RNA; matrix: in vitro; tested at: 365 nM; reference: no-protein control; direction: higher = stronger binding; endpoint: RBNS enrichment (R)
Target: RNA binding protein fox-1 homolog 2, RRM domain, GST-SBP tag (RBFOX2, Homo sapiens, UniProt O43251-10, residues 100-194)
Notes: natural RNA segment, single round, ends assumed
Residues (chain): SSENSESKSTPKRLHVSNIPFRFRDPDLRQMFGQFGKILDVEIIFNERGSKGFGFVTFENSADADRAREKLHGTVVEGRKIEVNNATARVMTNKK
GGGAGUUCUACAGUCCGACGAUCGUUUUUUUUCUUUCAUUUUUCUCUCAUUCCAUUUCUGCCUUAACUUUAGUUUGUUCACAGGGAGGCAAAGCUGACAUGAACCUUUUGUCGUGGGACUUCAGGCCACAUUGUGGAAUUCUCGGGUGCCAA: 0.867
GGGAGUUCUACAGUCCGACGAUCACAUGGGGAGCCCGGAGGACAGGCUGCUGUCCAGGGCAGAGGCCAUGAAGAAGUGCUUCCGUGGCCGACAGUCUGGAAAUGAAUCCAUCAUACAUUAGUGCCAUAGAGUUUGGAAUUCUCGGGUGCCAA: 0.384
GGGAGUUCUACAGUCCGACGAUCUUUCCUUUUUGACACUGAAAGUUUUGUAAAAGAAAUCCUAUCCAUACACGUUGUAAGAUGUGAAUUAUUGACACUGAGCUAACUGUACUGUUUGGAAAGGGGCCCUCAAGUGGAAUUCUCGGGUGCCAA: 0.304
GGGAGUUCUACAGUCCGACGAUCUGUAGACGAGUCCCCGACUCUGGGAUACAUGAGGAUCAAUGCCCGUUUUCUCCCCGUGUGCUUUCCUGCAGAAUCCUUGCCUUUCCGUUGUUAGGUUGGGUUUUCUAUAUUGGAAUUCUCGGGUGCCAA: 0.291
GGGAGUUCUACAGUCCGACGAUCAGGGUACCCACCAGGCAGCUCACCAAGUCUCUGCUUUUGUAAAUUAAUUUUUUACCAUUGCUACGUGUCCCACCUGCUGUUUACAAUAAAGGCAGAUGUGUGACAGGCCUUGGAAUUCUCGGGUGCCAA: 0.337
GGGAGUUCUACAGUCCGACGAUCUAAGUUAAUGUUUUUAGUUUUUUCUCCUUUUCCCUGCCCUGCCCUGACUUUACAUGAAACAAGUUCAGUUUCGUUUACCAGCCUUUCUGGGUUCCCUUUGACUCCCCUGCUGGAAUUCUCGGGUGCCAA: 1.06
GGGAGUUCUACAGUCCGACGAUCGACAAACUUGGAUCAAGAGGACCCAUUUGGGUGAGGGACCAGGUGGUUUCCAAUCCAGUGUGGACAGCAAAUGAAUGCUAUGCAGGCAUGCAGAUGAGAUCUGUACUAUAUGGAAUUCUCGGGUGCCAA: 0.537
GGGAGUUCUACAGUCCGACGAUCGUCACUGUCACUGUGGCGGGACAGAGUGCUUCGGUAUAAGCCCGCAGGCUUCUGGUUCUUGGUUCUAUUAUGCCACUUCUCCGGUUCUUUCUAUCCCAAGGAGAGUGUGAUGGAAUUCUCGGGUGCCAA: 0.483
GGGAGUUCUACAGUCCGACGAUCUUUUGUUUUGUUGAGUUAAAGUAUAUUAUUGUGAGAUUUAUUUAAUAGGACUUCCUUUGAAAGCUGUAUAAUAGUGUUUCUCGGGCUUCUGUCUCUAUGAGAGAUAGCUUUGGAAUUCUCGGGUGCCAA: 0.834
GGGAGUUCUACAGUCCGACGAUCGGAGAACUGACUAGCUAAACUGCUACAGUAUGCAAUUUCUAUUACAAUUGGUAUUACAGGGGGGAAAAGUAAAAUUACACUUUACCUGAAAGUGACUUCUUACAGCUAGUUGGAAUUCUCGGGUGCCAA: 0.355
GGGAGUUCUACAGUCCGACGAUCAAGUGAGCCAUAUUUAUUGUCUUUAGGAAAUCACUAAUUGCUCUUUGACUGCACUGUGGGUGAGUGUUCUGAGCUCCCAAUAUUGUACAGCAUCGUAAAUUAUCCAAGGAUGGAAUUCUCGGGUGCCAA: 1.97

Mixed results
PhoQ, residues 284 288 289 292 302 303 SLANIV
fold induction (PhoP, residues 12 14 15 18 19 AQALL (Escherichia coli, UniProt P23836); Sort-seq, refers to: YFP reporter; E. coli; PhoQ-PhoP variant library, with: 10 µM Mg2+; reference: high Mg2+ state, higher = stronger signaling): 15.6

A few entries again (series 1):
H13S: 1.52
S2C: 0.624
P10L: 0.834
